Published values pooled from the literature.
Parts stem from different laboratories: compare values within a part only. Positions count from the first letter of the parent shown.

Sample 1
Target: CCNA2, cyclin fold, Cln2 fusion (human)
Technique: yeast growth competition, sequencing
Sample: yeast
Setting: strong parent motif
Reference: not given
Reading: higher = stronger binding
Starting sequence: CDKN1B docking peptide (human); PSACRNLFGPVDH; partner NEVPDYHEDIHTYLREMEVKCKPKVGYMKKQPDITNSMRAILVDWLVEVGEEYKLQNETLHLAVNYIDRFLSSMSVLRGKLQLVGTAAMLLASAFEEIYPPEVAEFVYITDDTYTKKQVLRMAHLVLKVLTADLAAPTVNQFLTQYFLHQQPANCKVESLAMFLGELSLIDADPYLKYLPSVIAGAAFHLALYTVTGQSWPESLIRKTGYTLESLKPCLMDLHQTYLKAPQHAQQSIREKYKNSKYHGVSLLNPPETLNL
| Variant | normalised enrichment score |
| --- | --- |
| V11I | 4.26 |
| H13T | 4.19 |
| S2T | 4.1 |
| F8N | -0.0194 |
| V11R | 3.72 |
| R5K | 2.82 |
| H13Q | 4.4 |
| P10N | 3.83 |
| D12W | 3.94 |

Sample 2
Target: Histone acetyltransferase KAT6A, winged helix 1, GST fusion (KAT6A, Homo sapiens, UniProt Q92794, residues 1-85)
Technique: protein binding microarray
Molecule type: double-stranded DNA, one strand shown
Sample: in vitro
Concentration: not given
Setting: 8-mer, flanks averaged, mean of 2 arrays, mostly near background
Reference: not given
Reading: higher = stronger binding
Target sequence (chain): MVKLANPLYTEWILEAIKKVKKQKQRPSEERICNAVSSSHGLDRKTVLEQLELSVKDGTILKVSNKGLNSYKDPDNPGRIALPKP
| Oligonucleotide | E-score |
| --- | --- |
| AACAAGGG | -0.034 |
| ACTGTCTC | -0.0496 |
| CGAGACAG | -0.165 |
| CAACATGC | 0.0882 |
| AACGGGAT | 0.228 |
| TATAACCA | -0.185 |
| ACATACAC | -0.127 |
| CACGGGAC | 0.219 |
| CCAGTTAG | -0.211 |

Sample 3
Target: RNA binding protein fox-1 homolog 2, RRM domain, GST-SBP tag (RBFOX2, Homo sapiens, UniProt O43251-10, residues 100-194)
Technique: RNA Bind-n-Seq
Molecule type: RNA
Sample: in vitro
Concentration: 365 nM
Setting: natural RNA segment, single round, ends assumed
Reference: no-protein control
Reading: higher = stronger binding
Constant ends, left off below: GGGAGUUCUACAGUCCGACGAUC … UGGAAUUCUCGGGUGCCAA
Construct (chain): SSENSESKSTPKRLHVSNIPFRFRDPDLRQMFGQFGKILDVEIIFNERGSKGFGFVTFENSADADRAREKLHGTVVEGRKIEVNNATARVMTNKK
| Oligonucleotide | RBNS enrichment (R) |
| --- | --- |
| GCUGCAGUCCUAAAGUCUCAAGCUAGAGGGUGGGGGCCACGGAAGGAAGGCAGCCUUUCAGGUAGCAAGAUUAAAUAUUGCUGUUGCCAAAUAGUAUUUGAAAUAAUACC | 0.477 |
| GUGGCUCUUCCAGCCUGCAGGGACAGUAAAGGAAGCCAUGGACACUGGCCCCAAGAACUGAUAAGACUCCAGUGGGGGACCACCACAUUCAUAGCCCCGUCACAGGAAGU | 0.632 |
| GCUUAAUACAACAGGUGCCCAGAAUACUUGCAGUGUAAAUGAAGAUUGGAUUUUUGUAUAAAAAGAUAAUGCUGUCAAACGGGAACUGACCUUUAUUGAAUCUGAAAUGA | 0.657 |
| GGGGAAAAGAUAUUAACAUCACGUCUUUGUCUCUAGUGCAGUUUUUCGAGAUAUUCCGUAGUACAUAUUUAUUUUUAAACAACGACAAAGAAAUACAGAUAUAUCUUAAA | 0.721 |
| UCAGGCCAGAGGACAACAGGCUGGCGUUUUGUUGGGAACUGAAGAGGAAUCUGUUGAACACAGCGACCAGAUGACCUUCCAUUUCACCGGCGGCAGCAGUUUCAGCGUGC | 0.182 |
| UUUAGAAACCACCUUCUAGGCGUUUUUGGAACCCUUACUGAAAUCCCUCCCCUUGUUACAGAUGGCGUAGAAGUCACAAGUCUGUUAAUUGGACUGUUGCUUCUUUGCCU | 0.388 |
| ACUCUUGCAGGCUAUAUAUGUGAAGAAUAGUUGUGAUGUAGAUGGAAAGAAAAUGUAUUAUUGUGUGUAUCAUUUGUGUGCUUUCAUAGCAAAAAAUGUGUUUCAGUUGU | 1.46 |

Mixed results
| Substance | target | assay | test system | setting | how to read | quantity | value |
| --- | --- | --- | --- | --- | --- | --- | --- |
| PhoQ, residues 284 288 289 292 302 303 SSTMSV | PhoP, residues 12 14 15 18 19 NHFRA (Escherichia coli, UniProt P23836) | Sort-seq, measured: YFP reporter | E. coli | PhoQ-PhoP variant library, added: 10 µM Mg2+ | reference: high Mg2+ state, higher = stronger signaling | fold induction | 2.52 |

Excerpt of the above (sample 2):
| Oligonucleotide | E-score |
| --- | --- |
| CAACATGC | 0.0882 |
| TATAACCA | -0.185 |
| CACGGGAC | 0.219 |
| ACTGTCTC | -0.0496 |
